Assay results collected from several papers.
Every numbered part comes from another study and shows a few of its results, in no order.
Chain of UniProt O60674 (whole entry, looked up): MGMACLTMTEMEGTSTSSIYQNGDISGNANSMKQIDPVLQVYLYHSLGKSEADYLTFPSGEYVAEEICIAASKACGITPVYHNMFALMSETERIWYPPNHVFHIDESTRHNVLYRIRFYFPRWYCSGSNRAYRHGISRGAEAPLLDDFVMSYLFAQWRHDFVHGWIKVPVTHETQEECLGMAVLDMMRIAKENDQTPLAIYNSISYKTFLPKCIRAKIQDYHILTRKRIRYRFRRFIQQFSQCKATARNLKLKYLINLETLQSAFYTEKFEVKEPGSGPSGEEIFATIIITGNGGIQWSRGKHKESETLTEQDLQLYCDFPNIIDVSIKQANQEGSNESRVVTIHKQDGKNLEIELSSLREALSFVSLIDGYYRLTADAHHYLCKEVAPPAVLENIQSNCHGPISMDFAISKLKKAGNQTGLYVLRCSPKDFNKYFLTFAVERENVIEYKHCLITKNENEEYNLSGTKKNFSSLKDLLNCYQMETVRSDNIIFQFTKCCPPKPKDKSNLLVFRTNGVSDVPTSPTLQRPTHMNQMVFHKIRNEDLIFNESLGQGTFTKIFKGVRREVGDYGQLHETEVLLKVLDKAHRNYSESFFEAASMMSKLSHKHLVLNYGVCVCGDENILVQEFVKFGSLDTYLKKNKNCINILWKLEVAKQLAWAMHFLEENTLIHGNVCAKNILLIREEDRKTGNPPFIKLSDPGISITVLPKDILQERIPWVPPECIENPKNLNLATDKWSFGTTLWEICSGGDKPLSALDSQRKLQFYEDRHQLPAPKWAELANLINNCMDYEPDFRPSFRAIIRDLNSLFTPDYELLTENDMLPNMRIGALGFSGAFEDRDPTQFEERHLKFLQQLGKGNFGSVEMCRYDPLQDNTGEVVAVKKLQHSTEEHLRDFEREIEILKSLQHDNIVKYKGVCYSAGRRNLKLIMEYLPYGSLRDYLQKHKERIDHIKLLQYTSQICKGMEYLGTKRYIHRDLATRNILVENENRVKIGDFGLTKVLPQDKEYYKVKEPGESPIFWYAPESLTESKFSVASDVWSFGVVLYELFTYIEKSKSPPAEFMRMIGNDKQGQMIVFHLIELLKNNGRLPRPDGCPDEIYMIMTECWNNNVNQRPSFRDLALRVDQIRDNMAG

Sample 1
Target: Centromere-binding protein 1, full length, His-tagged (CBF1, Saccharomyces cerevisiae, UniProt P17106, residues 1-351)
Chain of UniProt P17106 (whole entry, looked up): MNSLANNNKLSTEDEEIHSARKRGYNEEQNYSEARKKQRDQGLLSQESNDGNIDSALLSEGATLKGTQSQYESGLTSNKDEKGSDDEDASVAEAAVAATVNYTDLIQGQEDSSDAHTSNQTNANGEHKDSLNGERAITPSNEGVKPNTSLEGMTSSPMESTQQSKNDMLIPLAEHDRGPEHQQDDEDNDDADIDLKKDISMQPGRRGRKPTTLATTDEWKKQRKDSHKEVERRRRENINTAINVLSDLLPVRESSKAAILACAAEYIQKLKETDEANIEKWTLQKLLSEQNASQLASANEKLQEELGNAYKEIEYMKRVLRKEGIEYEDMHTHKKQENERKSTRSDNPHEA
Method: competition protein-binding microarray
Molecule type: double-stranded DNA, one strand shown
Matrix: in vitro
Tested at: 2 µM
Notes: whole 60-bp probe, lowest competitor level
Added: Pho4 competitor, 0.05 µM
Direction: higher = stronger binding
Constant ends, left off below: … GTCTTGATTCGCTTGACGCTGCTG
Strand | fluorescence intensity [a.u.]
CTAACGAAGGTTTGAAGAGTGGGTGACAAGCCAAGT | 67.7
GAAAGCATCCGACGCCGCGTGGTCAATTTGTTCCTT | 76.5
CCGCCCTTCTTCCGTCCCGTGCGGAAGGGGGGCGCG | 145
TAGGCCGTCTTATGTAACGTGGTGAACGCTGCCTAG | 75.7
CTTCTGTAAATTTGGGAGGTGGGTGGACGCGCCCCG | 81.2
CTAACGAAGGTTTTTCACGTGCGATACAAGCCAAGT | 766
TCTCCTTGCTCGTACCATGTGGTTTCATCTCAGGGT | 158
GACCCGCCCCTGGGTCACGTGTTGCCTGCGGACCCG | 9010

Sample 2
Target: RING finger protein unkempt homolog, zinc fingers 1-6, GST-SBP tag (UNK, Homo sapiens, UniProt Q9C0B0, residues 30-357)
Method: RNA Bind-n-Seq
Molecule type: RNA
Matrix: in vitro
Tested at: not given
Notes: RNA with constant flanks, ends assumed
Baseline: input RNA pool
Direction: higher = stronger binding
Constant ends, left off below: GGGAGUUCUACAGUCCGACGAUC … CAACAGAGGAUUGAGCAUCA
Construct (chain): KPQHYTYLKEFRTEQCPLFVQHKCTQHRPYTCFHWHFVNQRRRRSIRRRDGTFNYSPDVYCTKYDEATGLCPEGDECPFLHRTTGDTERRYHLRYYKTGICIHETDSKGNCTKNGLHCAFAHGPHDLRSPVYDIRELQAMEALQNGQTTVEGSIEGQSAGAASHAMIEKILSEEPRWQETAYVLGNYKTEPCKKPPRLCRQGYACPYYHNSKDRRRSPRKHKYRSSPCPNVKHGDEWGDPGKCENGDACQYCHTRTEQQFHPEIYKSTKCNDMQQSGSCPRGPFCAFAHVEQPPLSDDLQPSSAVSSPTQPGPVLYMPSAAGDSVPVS
Strand | bound/input enrichment [ratio]
GGGUAUUUCACAAAGCCUCCACUUGUAGCUCACGCUUCAAGGUCAGCAGAAUCAAAGGUUACCGAAUUUGGAAAAUCCAAUUUCGUUCAGCCCAUGCAGGGUGAAGUAAUAAGGCCACCC | 0.0815
UUCUUUUCUAAAACCUUGUUUAACUGCCUUGUUUAUGGACCAGAAAAUACCCAGCCAAUUUCCGAUGAUGUUUCAGACUUUGAUGUGGCACAGAUUAUAAUCAGGAUAAAUACUGCAACA | 0.277
GAUGAAUUGAUGACCCUGGCUCAUAAACACAUUGUCAAGACUGUGGAUUUCACGCAGGACCGUAAUUAUUUGUUAACCGGGGGACAGGAUAAACUGUUACGCAUAUAUGACUUGAACAAA | 0.217
UGUUGCUGCCUUUAUGGACAUGGGUACCAAUUGCUUUUGUAAUAUGGUAAAAAUGUGAGCCCGCACUUCUGCGUUCCUUUUGAUUUUUUUUUUUUAACAUGUAUUCAGAUUGAGAAAUAU | 0.341
AGAACAAAUAAAGGGCUCCAGCUACGGCAUGGCAAUGACCAGCGAGUGUUCCGCCCCGAGUUUGUGUCCAACCAAGAAUUCACUGAAAGUGAAUUCAUGAAGUGGAAAGAAGCGAUGUUU | 0.115
GGUAAGUGGGGGCAAGUGGGGGCAAGGGGACAUAUCAUUGUGACAACUUUUUUGAUAUUUACCCGAAAUGAUGCAAUAUAUCCUUUCUGAGAUAUUUACAGUAUUAUUAAAGGGUUGGGC | 1.74
AAUGCUGUUCGCCAAAAUGGACAGCUGGUCAGAAAUGAUUCUCUGUAUGGCAUUUCAAAUACCGAUACAACCAUUGAAGGAACGUCAGAUGACCUGACUGUUGUAGAUGCAGCUUCACUA | 0.147
GGAACCUGCCGGGGCAGCGGACGUUGGAAGGGCGCUGGGCCUCGGCUGGGACCGUUCAUGCCGCAGCAACCGGCGGCGGCUGCCGCAGAGCAGCGUUCGGUUUUGUUUUUAAAUUUUGAA | 0.144

Single results of other studies
Substance | target or system | assay | test system | conditions | how to read | endpoint | result
CCT5 (Homo sapiens, UniProt P48643) | CCT2 (Homo sapiens, UniProt P78371) | cross-linking MS | cell fractions | added: DMTMM |  | cross-linked residues | D67 to K82
CCCC(=O)Oc1ccc2[nH]c(C(=O)c3cc4ccccc4[nH]3)cc2c1 | JAK2 (Homo sapiens, UniProt O60674) | enzyme activity, inhibitor |  | 0.5 µM | baseline: control | remaining activity | 106%
SMARCA5 (Homo sapiens, UniProt O60264) | EHD3 (Homo sapiens, UniProt Q9NZN3) | cross-linking MS | cell fractions | added: DSSO |  | cross-linked residues | K397 to K486
CN([C@@H]1CCc2c(CC(=O)O)c3ccccc3n2C1)S(=O)(=O)c1ccc(F)cc1 | normal adjacent epithelium patient-derived organoids | CellTiter-Glo |  | 1 µM, mean of five organoid lines | baseline: DMSO | viability | 112%
SEPTIN6 (Homo sapiens, UniProt Q14141) | SEPTIN7 (Homo sapiens, UniProt Q16181) | cross-linking MS | cell fractions | added: DHSO |  | cross-linked residues | E404 to E419
WDHD1 (Homo sapiens, UniProt O75717) | HSPA6 (Homo sapiens, UniProt P17066) | cross-linking MS | cell fractions | added: DMTMM |  | cross-linked residues | K1108 to D162
